# Experimental data gathered from unrelated publications.
# Each line is one published result; not all experiments were run side by side.
# CSF1R: Macrophage colony-stimulating factor 1 receptor (CSF1R, Homo sapiens, UniProt P07333)
# CSF1R autoinhibited: Macrophage colony-stimulating factor 1 receptor, autoinhibited (CSF1R, Homo sapiens, UniProt P07333)
SMILES,target,observed,technique,tested at,baseline,remaining binding [%]
CN1CCN(Cc2ccc(NC(=O)c3cccc(C#Cc4cnc(N)c5ncccc45)c3)cc2C(F)(F)F)CC1,CSF1R,cell-free assay,competition with immobilised ligand,0.5 µM,,0.1
Cc1cnc2nc1Nc1cccc(c1)COC/C=C/COCc1cc(ccc1OCCN1CCOCC1)N2,CSF1R,binding,,0.1 µM,,57
CCN1CCN(Cc2ccc(C(=O)Nc3ccc(C)c(NCc4cnc5[nH]ccc5c4OC)c3)cc2C(F)(F)F)CC1,CSF1R autoinhibited,binding,competition with immobilised ligand,1 µM,,64
CNS(=O)(=O)Nc1nccc(Cc2c(C)c3ccc(Oc4ncccc4F)cc3oc2=O)c1F,CSF1R,cell-free assay,competition with immobilised ligand,10 µM,,100
COc1c(Cl)cccc1Nc1c(-c2ccncc2C#C[C@@]2(C)CCCN2C(=O)/C=C/CN(C)C)[nH]c2c1C(=O)NCC2,CSF1R autoinhibited,cell-free assay,competition with immobilised ligand,3 µM,,97
C=CC(=O)N1CCCC(n2c(=O)c3ncccc3n(Cc3ccc(Oc4ccccc4)cc3)c2=O)C1 (stereo not shown),CSF1R,cell-free assay,competition with immobilised ligand,1 µM,,88
CNC1C[S+]2CC[S+]3CC[S+](C1)[Ru-4]321([N]=C=S)[n]2c3ccc(OC)cc3c3c4c(c5cc(F)c[n+]1c5c32)C(=O)NC4=O (stereo not shown),CSF1R,,KinomeScan,0.1 µM,untreated,55
COc1cc(Nc2nccc(-c3cnn4nc(OC)ccc34)n2)cc(C(F)(F)F)c1,CSF1R autoinhibited,binding,competition with immobilised ligand,1 µM,,84
CC(C)=CC1OC(C)(C)C2C=C3C(=O)C(Cl)=CC(O)C3C3C(O)C4OC4C(=O)C132 (stereo not shown),CSF1R,cell-free assay,competition with immobilised ligand,10 µM,,92
COc1ccc(NC(=O)Nc2ccc3c(c2)C(=O)N(C(C)CO)CC(C)C(CN(C)Cc2ccc4c(c2)OCO4)O3)cc1 (stereo not shown),CSF1R,binding,competition with immobilised ligand,10 µM,,100
CNC(=O)C1CCN(c2cc(C)c(F)cc2NC(=O)c2ccc(-c3cc(O)ccc3C)c(C)c2)CC1,CSF1R autoinhibited,binding,competition with immobilised ligand,1 µM,,96
Nc1ncc2c(n1)-c1c([nH]c3ccc(C4=CCOCC4)cc13)CCC2,CSF1R autoinhibited,binding,competition with immobilised ligand,1 µM,,75
C=CC(=O)N1CCc2ccc(-n3c(=O)ccc4cnc5ccc(-c6cnn(C)c6)cc5c43)cc21,CSF1R,,KINOMEscan,1 µM,DMSO control,98

# For quick reference, copied from above:
SMILES,target,observed,technique,tested at,baseline,remaining binding [%]
Nc1ncc2c(n1)-c1c([nH]c3ccc(C4=CCOCC4)cc13)CCC2,CSF1R autoinhibited,binding,competition with immobilised ligand,1 µM,,75
C=CC(=O)N1CCc2ccc(-n3c(=O)ccc4cnc5ccc(-c6cnn(C)c6)cc5c43)cc21,CSF1R,,KINOMEscan,1 µM,DMSO control,98
